Results gathered from unrelated publications.
Compare with care: the assays were run in different laboratories. Several values in a cell are separate wells, animals, samples, runs or records. ± marks the error that the study gave.

`O=P(O)(OCc1cccc2ccccc12)Oc1c2c(c(OP(=O)(O)OCc3cccc4ccccc34)c3c1C1CC3c3cc4c(cc31)C1CC4c3ccccc31)C1CC2c2cc3c(cc21)C1CC3c2ccccc21` has an EC50 of 4800 nM (liposome dye leakage; liposomes 200 nm; 30 min, together with: carboxyfluorescein 50 mM).
Under “ΔS‡ at 298.15 K”, `N[C@@H](Cc1ccc(O)cc1)C(=O)N1CCC[C@H]1C(=O)NCC(=O)NCC(=O)O` is recorded as -74 ± 18 J/(mol·K) (diketopiperazine formation, transition state theory; 1-propanol; 70, 80, 90 °C, 0.5% acetic acid).
`O=C(O)/C=C/c1cc(O)cc(O)c1`: “ABTS radical scavenging” 76.2 ± 2.91% (500 µg/mL).
`O=P(O)(OCCc1ccccc1)Oc1c2c(c(OP(=O)(O)OCCc3ccccc3)c3c1C1CC3c3cc4c(cc31)C1CC4c3ccccc31)C1CC2c2cc3c(cc21)C1CC3c2ccccc21` gave an EC50 of 2600 nM (liposome dye leakage; liposomes 200 nm; 30 min, together with: carboxyfluorescein 50 mM).
Under “time to increased Bacteroidetes/Firmicutes ratio”, `CC(C)C[C@@H]1NC(=O)[C@@H](Cc2c[nH]c3ccccc23)NC(=O)[C@H](CCCNC(=N)N)NC(=O)[C@@H](CCC(=O)O)NC(=O)[C@H](CCC(N)=O)NC(=O)[C@@H](CCC(=O)O)NC(=O)[C@H](CCCNC(=N)N)NC(=O)[C@@H](Cc2c[nH]c3ccccc23)NC1=O` is recorded as ≤ 6 weeks (16S rRNA sequencing, measured: gut microbiota; LDLr-/- mice, Western diet, feces; oral, 35 mg/kg daily; relative to: vehicle).
The EC50 of `Cc1ccc(COP(=O)(O)Oc2c3c(c(OP(=O)(O)OCc4ccc(C)cc4)c4c2C2CC4c4cc5c(cc42)C2CC5c4ccccc42)C2CC3c3cc4c(cc32)C2CC4c3ccccc32)cc1` is reported as 3000 nM (liposome dye leakage; liposomes 200 nm; 30 min, together with: carboxyfluorescein 50 mM).
`CC(C)C[C@@H]1NC(=O)[C@@H]2CSSC[C@@H]3NC(=O)[C@H](Cc4c[nH]c5ccccc45)NC(=O)[C@H]([C@@H](C)O)NC(=O)CNC(=O)[C@H](C)NC(=O)[C@H](CO)NC(=O)[C@H](CCCCN)NC(=O)[C@@H](N)CSSC[C@@H]4NC(=O)[C@H](CSSC[C@H](NC(=O)[C@H](Cc5ccccc5)NC(=O)CNC(=O)[C@H](C(C)C)NC1=O)C(=O)N[C@@H](Cc1ccc(O)cc1)C(=O)NCC(=O)N[C@@H](C(C)C)C(=O)N[C@@H](CO)C(=O)N[C@H](C(=O)O)CSSC[C@H](NC(=O)[C@H](CO)NC(=O)CNC4=O)C(=O)NCC(=O)N2)NC(=O)CNC(=O)[C@H](Cc1c[nH]cn1)NC(=O)[C@@H]1CCCN1C(=O)[C@H](CC(=O)O)NC(=O)[C@H](Cc1ccccc1)NC(=O)CNC3=O` has an EC50 of ~100 nM (vasorelaxation; rat, aortic rings; together with: phenylephrine 0.1 µM precontraction).
Under mRNA level, `CCc1nnc(-c2c(OC)cc(-c3cnc4cc(-c5cnn(C)c5)ccn34)cc2OC)o1` is recorded as “decreased” (measured: Sost; male C57BL/6J mice; oral gavage, dose not given, 3 weeks).
`somatostatin`: “GFAP-positive glial activation” 0% (Sprague-Dawley rat, streptozotocin-induced diabetes, retina; eye drops, 10 mg/mL, score 4).
Under “antigen-experienced tetramer+ cells”, `CC[C@H](C)[C@H](NC(=O)[C@@H](NC(=O)[C@H](CC(=O)O)NC(C)=O)[C@@H](C)O)C(=O)N[C@@H](CCCNC(=N)N)C(=O)N[C@@H](CC(C)C)C(=O)N[C@@H](CC(C)C)C(=O)N[C@@H](Cc1ccccc1)C(=O)N[C@@H](CCC(N)=O)C(=O)N[C@@H](CC(C)C)C(=O)N[C@@H](CCSC)C(=O)N[C@@H](CCCNC(=N)N)C(=O)N1CCC[C@H]1C(=O)N1CCC[C@H]1C(=O)N[C@@H](CC(N)=O)C(=O)N[C@@H](CCSC)C(=O)N[C@H](C(=O)N1CCC[C@H]1C(=O)N[C@@H](C)C(=O)N[C@H](C(=O)N[C@@H](CC(N)=O)C(=O)N[C@@H](C)C(N)=O)C(C)C)[C@@H](C)O` is recorded as 40 to 71% (PBMC CD4 T cells, HLA-DR1 vaccinated children; dose not given).
For `O=C(O)CCCC(=O)O`, “ABTS radical scavenging” read 75.9 ± 1.81% (500 µg/mL).
For `CC(C)C[C@H](NC(=O)[C@H](Cc1ccccc1)NC(=O)[C@@H](NC(=O)[C@H](Cc1c[nH]cn1)NC(=O)[C@H](CC(=O)O)NC(=O)[C@@H](NC(=O)[C@H](Cc1ccc(C(=O)c2ccccc2)cc1)NC(=O)[C@@H](NC(=O)[C@@H](N)Cc1ccc(O)cc1)[C@@H](C)O)C(C)C)C(C)C)C(=O)N[C@@H](CCCNC(=N)N)C(=O)N[C@@H](Cc1ccccc1)C(N)=O`, the EC50 was 0.01 nM (heart contraction rate decrease; Drosophila melanogaster white prepupae, pupal heart).
With `CC(C)C[C@H](NC(=O)[C@H](Cc1ccccc1)NC(=O)CNC(=O)CNC(=O)[C@@H](N)Cc1ccc(O)cc1)C(=O)N[C@@H](CCCNC(=N)N)C(=O)N[C@@H](CCCNC(=N)N)C(=O)N[C@@H](CCC(N)=O)C(=O)N[C@@H](Cc1ccccc1)C(=O)O` the EC50 was < 1000 nM and 640 nM (C57BL/6 mouse striatal membranes).
Under “log2 fold change”, `Cc1ccc(/C=C/C(=O)O)cc1-c1cc2c(cc1C)C(C)(C)CCC2(C)C` is recorded as -0.007 (RNA sequencing, measured: Scd1; rat, brain; dose not given, 24 h; relative to: vehicle).
Under mRNA level, `CSCCNC(=O)CCC(C)C1CCC2C3C(O)CC4CC(O)CCC4(C)C3CCC12C` (centres unmarked) is recorded as “no effect” (measured: Slc10a2; SPF mice, small intestine; oral gavage, dose not given; relative to: vehicle).
`O=C(O)/C=C/c1ccc(O)cc1`: “ABTS radical scavenging” 66.6 ± 1.2% (250 µg/mL).
Under “activation time ratio”, `CC(C)C[C@H](NC(=O)[C@H](Cc1ccccc1)NC(=O)CNC(=O)CNC(=O)[C@H](Cc1ccc(O)cc1)NC(=O)OC(C)c1ccccc1[N+](=O)[O-])C(=O)O` (some centres unmarked) is recorded as ~1.5 fold (GIRK current, MOR agonist; rat, locus coeruleus slices; 10 µM, together with: 100 mW 355 nm light, 50 ms; relative to: compound over references).
For `CC1=C(C(=O)Nc2ccc(F)cc2)C(c2ccccc2Br)NC(=S)N1` (centres unmarked), “mean arterial pressure” read 23.1 ± 0.87 mm Hg (carotid artery cannulation; male Wistar rats, anaesthetised; 0.3 mL, 3 h).
The target-to-non-target ratio of `COc1ccc2c(c1)C(C)(C)C(/C=C/C1=C(Oc3ccc(C(=O)NCCCCOc4cc(CN(Cc5ccccn5)Cc5ccccn5)cc(CN(Cc5ccccn5)Cc5ccccn5)c4)cc3)C(=C/C=C3/N(CCCCS(=O)(=O)[O-])c4ccc(OC)cc4C3(C)C)CCC1)=[N+]2CCCCS(=O)(=O)[O-].O=[N+]([O-])O.O=[N+]([O-])[O-].O=[N+]([O-])[O-].O=[N+]([O-])[O-].[Zn+2].[Zn+2]` is reported as 1.04 ± 0.17 (photoacoustic imaging; BALB/c mouse LPS-induced sterile myositis, inflamed muscle; intravenous, dose not given, 12 h; relative to: inflamed over vehicle control muscle).
For `CCOP(=O)(OCC)OCCCCOC(=O)CC1=C(C)/C(=C/c2ccc([S+](C)[O-])cc2)c2ccc(F)cc21` (centres unmarked), cartilage damage read “no effect” (rat, Freund's adjuvant arthritis; oral, 50 mg/kg once daily, prevention protocol).
With `COc1cc2ncnc(Oc3cccc(N[11C](=O)Nc4cc(C(C)(C)C(F)(F)F)on4)c3)c2cc1OC` the radioactivity was 347 ± 8.24 PSL/mm² (in vitro autoradiography; A-375 melanoma xenograft sections; 11.6 MBq/L, 30 min, 25 °C, radiolabelled compound alone).
`CC[C@H](C)[C@H](NC(=O)[C@H](CCCNC(=N)N)NC(=O)[C@H](CCC(N)=O)NC(=O)[C@H](CC(=O)O)NC(=O)[C@H](CC(C)C)NC(=O)[C@H](CC(C)C)NC(=O)[C@H](CC(N)=O)NC(=O)[C@H](Cc1ccccc1)NC(=O)[C@H](CC(=O)O)NC(=O)[C@@H](NC(=O)[C@@H](NC(=O)[C@H](CC(N)=O)NC(=O)CNC(=O)[C@H](CO)NC(C)=O)C(C)C)[C@@H](C)CC)C(=O)N[C@H](C(=O)N[C@@H](Cc1c[nH]c2ccccc12)C(=O)N[C@@H](CCC(N)=O)C(=O)N[C@@H](CC(N)=O)C(=O)N[C@@H](Cc1c[nH]c2ccccc12)C(=O)N[C@@H](Cc1ccc(O)cc1)C(=O)N[C@@H](C)C(N)=O)[C@@H](C)CC`: “antigen-experienced T cells” 17% (measured: HA-52 tetramer; tetramer+ CD4 T cells, PBMC, healthy adults, HLA-DRB1*0101; dose not given, CD62L−CD45RA+/− or CD62L+CD45RA−).
`CCN(Cc1ccccc1)C(=O)CCc1nc(CN2CCN(C(=O)Cc3ccc(OC)c(OC)c3)CC2)no1` has an onset day of 13 days (thermal withdrawal threshold, Hargreaves test; mouse CCI model; 5 mg/kg, dosing from day 11).

Repeated from above:
Under mRNA level, `CSCCNC(=O)CCC(C)C1CCC2C3C(O)CC4CC(O)CCC4(C)C3CCC12C` (centres unmarked) is recorded as “no effect” (measured: Slc10a2; SPF mice, small intestine; oral gavage, dose not given; relative to: vehicle).
`O=C(O)/C=C/c1ccc(O)cc1`: “ABTS radical scavenging” 66.6 ± 1.2% (250 µg/mL).
Under “activation time ratio”, `CC(C)C[C@H](NC(=O)[C@H](Cc1ccccc1)NC(=O)CNC(=O)CNC(=O)[C@H](Cc1ccc(O)cc1)NC(=O)OC(C)c1ccccc1[N+](=O)[O-])C(=O)O` (some centres unmarked) is recorded as ~1.5 fold (GIRK current, MOR agonist; rat, locus coeruleus slices; 10 µM, together with: 100 mW 355 nm light, 50 ms; relative to: compound over references).
